Experimental data from different studies.
Protocols differ between the studies behind these lines. ± gives the spread as reported.
Cell line: HeLa

CC[C@H](C)[C@@H]([C@@H](CC(=O)N1CCC[C@H]1[C@H](OC)[C@@H](C)C(=O)NC(Cc1ccccc1)C(C)OC)OC)N(C)C(=O)[C@@H](NC(=O)[C@H]([C@@H](C)CC)N(C)C)C(C)C (stereo partly drawn) — lowest effective concentration (tubulin network disruption, immunofluorescence microscopy, refers to: alpha-tubulin): 0.1 nM
CCCCNC(P(=O)(O)O)P(=O)(O)O — cellular cholesterol reduction (Amplex Red; 100 µM, 24 h): 15%
C[C@H](NC(=O)[C@H](CCCNC(=N)N)NC(=O)[C@H](CCC(=O)O)NC(=O)[C@H](CCCNC(=N)N)NC(=O)[C@H](CCCNC(=N)N)NC(=O)[C@@H](NC(=O)[C@H](CCCNC(=N)N)NC(=O)[C@H](C)NC(=O)[C@H](CCCNC(=N)N)NC(=O)[C@H](CCC(=O)O)NC(=O)[C@@H](N)CCCNC(=N)N)[C@@H](C)O)C(=O)N[C@@H](CCCNC(=N)N)C(=O)N[C@H](C(=O)N[C@@H](CCCNC(=N)N)C(=O)N[C@@H](CCC(=O)O)C(=O)N[C@@H](CCCNC(=N)N)C(=O)N[C@@H](C)C(=O)N[C@@H](CCCNC(=N)N)C(=O)N[C@H](C(=O)N[C@@H](CCCNC(=N)N)C(=O)O)[C@@H](C)O)[C@@H](C)O — expression level (refers to: VEGF165b; from 25 µM): increased
CC(C)C12OC1C1OC13C1(C)CCC4=C(COC4=O)C1CC1OC13C2OC(=O)CCCOC1OC(CO)C(O)C(O)C1O (stereo not drawn) — cells with nuclear fragmentation (Hoechst staining; 3 µM, 6% DMSO): 53%
CC[C@@]1(O)C(=O)OCc2c1cc1n(c2=O)Cc2cc3cc(OC(=O)CCCC(=O)NCC(=O)N[C@@H](Cc4ccccc4)C(=O)N[C@@H](Cc4ccccc4)C(=O)N[C@@H](Cc4ccc(OP(=O)(O)O)cc4)C(=O)NCCSSCCNC(=O)CCC(=O)N[C@@H](CCC(=O)O)C(=O)N[C@@H](CCCNC(=N)N)C(=O)NCC(=O)N[C@@H](CC(=O)O)C(=O)O)ccc3nc2-1 — IC50 ratio (MTT; 48 h; relative to: free HCPT over compound): 4.21 fold
CC[C@H](C)[C@@H]([C@@H](CC(=O)N1CCC[C@H]1[C@H](OC)[C@@H](C)C(=O)N[C@@H](Cc1ccccc1)C(=O)O)OC)N(C)C(=O)[C@@H](NC(=O)[C@H](C(C)C)N(C)C(=O)CCSSC[C@H](NC(=O)[C@@H](NC(=O)CNC(=O)[C@H](CCC(=O)O)NC(=O)[C@H](CC(=O)O)NC(=O)[C@H](C)NC(=O)[C@H](CC(=O)O)NC(=O)[C@@H](NC(=O)[C@H](CC(C)C)NC(=O)[C@H](CC(C)C)NC(=O)[C@H](C)NC(=O)[C@H](CC(C)C)NC(=O)[C@H](CC(=O)O)NC(=O)[C@H](CC(C)C)NC(=O)[C@H](CC(C)C)NC(=O)[C@H](CC(C)C)NC(=O)[C@H](CC(C)C)NC(=O)[C@@H]1CCCN1C(=O)[C@@H](NC(=O)[C@@H](NC(=O)[C@H](Cc1ccccc1)NC(=O)[C@H](CC(C)C)NC(=O)[C@H](Cc1c[nH]c2ccccc12)NC(=O)[C@H](CC(=O)O)NC(=O)[C@H](C)NC(=O)[C@H](Cc1ccc(O)cc1)NC(=O)[C@H](CCCNC(=N)N)NC(=O)[C@H](C)NC(=O)[C@H](Cc1c[nH]c2ccccc12)NC(=O)[C@H](Cc1ccc(O)cc1)NC(=O)[C@@H](NC(=O)[C@@H]1CCCN1C(=O)[C@H](CC(N)=O)NC(=O)[C@H](CCC(N)=O)NC(=O)[C@H](CCC(=O)O)NC(=O)CNC(=O)CN)[C@@H](C)CC)[C@@H](C)O)[C@@H](C)O)C(C)C)[C@@H](C)O)C(=O)NCC(N)=O)C(C)C — IC50 fold decrease (MTT; without Ca2+; relative to: pH 6.0 over pH 7.4): 5 fold
CC(=O)N[C@@H](CCCNC(=N)N)C(=O)N[C@@H](CCCNC(=N)N)C(=O)N[C@@H](CCCNC(=N)N)C(=O)N[C@@H](CCCNC(=N)N)C(=O)N[C@@H](CCCNC(=N)N)C(=O)N[C@@H](CCCNC(=N)N)C(=O)N[C@@H](CCCNC(=N)N)C(=O)N[C@@H](CCCNC(=N)N)C(=O)N[C@@H](CCCNC(=N)N)C(=O)N[C@@H](CCCNC(=N)N)C(=O)NCC(=O)N[C@@H](COP(=O)(O)O)C(=O)N1CCC[C@H]1C(=O)N[C@H](C(=O)N[C@@H](Cc1ccccc1)C(=O)O)[C@@H](C)O — γH2AX-positive cells (DNA damage, immunostaining; 10 µM, 30 min, added: ionizing radiation 5 Gy): 35.7 ± 2.78%
CC(=O)N[C@H](CCCNC(=N)N)C(=O)N[C@H](CCCCN)C(=O)N[C@H](Cc1ccc(O)cc1)C(=O)N[C@H](CS)C(N)=O — inhibition (colony formation; 50 nM, 24 h): ≤ 50%
COc1cc(/C=C(\C#N)C(=O)Nc2nnc(C(F)(F)F)s2)ccc1OC(=O)N1CCN(C(=O)CCCC(=O)NCCCC[C@@H]2NC(=O)[C@@H](Cc3ccc(O)cc3)NC(=O)[C@H](CC(=O)O)NC(=O)CNC(=O)[C@H](CCCNC(=N)N)NC2=O)CC1 — GI50 (cell growth or viability, MTT; 48 h): 72 µM
CC1=CC=c2ccc3c4c2[N]1[Re](=[C]=O)(=[C]=O)(=[C]=O)([C]#[N+]c1c(C)cccc1C)[N]4C(C)=CC=3.O=S(=O)([O-])C(F)(F)F — ThT fluorescence (protein aggregation; 10 µM, 30 min; relative to: untreated): ≥ 2 fold
CC[C@H](C)[C@@H]([C@@H](CC(=O)N1CCC[C@H]1[C@H](OC)[C@@H](C)C(=O)N[C@H](C)[C@@H](O)c1ccccc1)OC)N(C)C(=O)[C@@H](NC(=O)[C@@H](NC)C(C)C)C(C)C — potency ratio (cytotoxicity; relative to: compound over MMAF, higher = more active than MMAF): 10 fold
Cc1ccc2ccc3ccc(C)nc3c2n1.O.[99Tc+].[C-]#[O+].[C-]#[O+].[C-]#[O+] — apoptotic cells (annexin V/PI; concentration not given, added: Z-VAD-FMK): no effect
